{"data": "Published values from different studies", "note": "Numbered parts are unrelated; each lists some results of a single study."}
{"data": "Block 1", "organism": "SARS-CoV-2 Wuhan spike VSV pseudovirus", "observed": "pseudovirus entry", "concentration": "concentration not given"}
{"Compound": "N#CC(C#N)=C/C=C(\\Sc1nnnn1-c1ccccc1)c1ccccc1", "inhibition [%]": 42}
{"Compound": "Cc1cccc(NC(=O)c2cc3cc(N(C)S(=O)(=O)c4ccccc4)ccc3s2)c1", "inhibition [%]": 37}
{"Compound": "Cn1nccc1C(=O)N1CCc2cc(-c3csc(C4CC4)n3)ccc21", "inhibition [%]": 42}
{"Compound": "Cc1ccc(C(=O)Nc2ccc(Br)cn2)cc1C", "inhibition [%]": 38}
{"Compound": "COc1ccc(C(=O)Nc2nc3c(s2)CN(Cc2ccccc2)CC3)cc1", "inhibition [%]": 45}
{"Compound": "COc1ccc(Br)cc1C1CC(=O)Nc2c1c(C)nn2-c1nc2ccccc2[nH]1 (stereo not drawn)", "inhibition [%]": 40}
{"data": "Other studies, line by line", "rep nsp12 RdRp": "Replicase polyprotein 1ab, nsp12 RdRp (rep, Severe acute respiratory syndrome coronavirus 2, UniProt P0DTD1)", "rep papain-like protease": "Replicase polyprotein 1ab, papain-like protease (rep, Severe acute respiratory syndrome coronavirus 2, UniProt P0DTD1)", "rep nsp14": "Replicase polyprotein 1ab, nsp14 (rep, Severe acute respiratory syndrome coronavirus 2, UniProt P0DTD1)"}
{"Structure (SMILES)": "CC1(C)CCC(CN2CCN(c3ccc(C(=O)NS(=O)(=O)c4ccc(NCC5CCOCC5)c([N+](=O)[O-])c4)c(Oc4cnc5[nH]ccc5c4)c3)CC2)=C(c2ccc(Cl)cc2)C1", "target": "rep nsp12 RdRp", "assay": "binding, biolayer interferometry", "setting": "concentration not given", "quantity": "BLI response", "result": "-0.01 nm"}
{"Structure (SMILES)": "O=C(O)[C@H]1O[C@@H](Oc2cc(O)c3c(=O)cc(-c4ccc(O)cc4)oc3c2)[C@H](O)[C@@H](O)[C@@H]1O", "target": "rep papain-like protease", "setting": "concentration not given, C111S mutant", "how to read": "reference: positive control", "quantity": "activity", "result": "19.8%"}
{"Structure (SMILES)": "Cn1c[n+]([C@@H]2O[C@H](COP(=O)(O)OP(=O)([O-])OP(=O)(O)OC[C@H]3O[C@@H](n4cnc5c(=O)[nH]c(N)nc54)[C@H](O)[C@@H]3O)[C@@H](O)[C@H]2O)c2nc(N)[nH]c(=O)c21", "target": "rep nsp14", "assay": "thermal shift", "setting": "20 µM", "quantity": "ΔTm", "result": "0.7 °C"}
{"Structure (SMILES)": "O=C(c1cccc(-c2nc3ccccc3[nH]2)n1)N1CCN(C(=O)c2cccc(-c3nc4ccccc4[nH]3)n2)CC1", "target": "rep nsp12 RdRp", "assay": "binding, biolayer interferometry", "setting": "concentration not given", "quantity": "BLI response", "result": "-0.02 nm"}
{"Structure (SMILES)": "O=C(NC1CCN(c2ncnc3[nH]cnc23)CC1)c1cccc(S(=O)(=O)N2CCCCC2)c1", "target": "rep nsp14", "assay": "NSP14 enzyme activity, inhibitor", "setting": "3.125 µM", "quantity": "inhibition", "result": "20%"}
{"Structure (SMILES)": "CC(C)=CCc1c(O)c(CC=C(C)C)c2oc3c(O)ccc(O)c3c(=O)c2c1O", "target": "rep papain-like protease", "setting": "concentration not given, C111S mutant", "how to read": "reference: positive control", "quantity": "activity", "result": "20%"}
